{"data": "Published values of several laboratories", "note": "Parts stem from different laboratories: compare values within a part only."}
{"data": "Study 1", "target": "Histone acetyltransferase KAT6A, winged helix 2, GST fusion (KAT6A, Homo sapiens, UniProt Q92794, residues 85-181)", "technique": "protein binding microarray", "molecule type": "double-stranded DNA, one strand shown", "matrix": "in vitro", "concentration": "not given", "setting": "8-mer, flanks averaged, mean of 2 arrays, mostly near background", "reference": "not given", "reading": "higher = stronger binding", "Target sequence (chain)": "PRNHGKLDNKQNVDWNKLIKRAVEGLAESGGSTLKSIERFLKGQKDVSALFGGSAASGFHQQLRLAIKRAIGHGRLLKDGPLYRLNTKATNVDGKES"}
{"Sequence": "ACGAGATG", "E-score": -0.0362}
{"Sequence": "CGCGTTGC", "E-score": 0.208}
{"Sequence": "AGGAACGC", "E-score": 0.073}
{"Sequence": "AACATAAG", "E-score": -0.0428}
{"Sequence": "TTTATAAA", "E-score": 0.316}
{"Sequence": "CGAATAAG", "E-score": -0.0389}
{"Sequence": "ACGGGTTC", "E-score": -0.102}
{"Sequence": "CGGAGACC", "E-score": 0.08}
{"Sequence": "CTAATATA", "E-score": -0.138}
{"Sequence": "GCGGTGGA", "E-score": 0.219}
{"Sequence": "AATTTTCG", "E-score": -0.084}
{"Sequence": "AACTACAA", "E-score": 0.114}
{"Sequence": "ATATGCAT", "E-score": -0.0698}
{"Sequence": "AGTCGATA", "E-score": -0.115}
{"Sequence": "GCATTATA", "E-score": -0.0856}
{"Sequence": "CCACAGCA", "E-score": 0.163}
{"Sequence": "AATCTGGC", "E-score": 0.019}
{"Sequence": "CGGTTAAG", "E-score": 0.0167}
{"Sequence": "CCTATACA", "E-score": -0.196}
{"Sequence": "CCCACAAG", "E-score": 0.194}
{"Sequence": "ATTGGAGG", "E-score": -0.182}
{"Sequence": "AATCGCGT", "E-score": -0.0447}
{"data": "Study 2", "target": "Interferon regulatory factor 7, full length, phosphomimetic (IRF7, Homo sapiens, UniProt Q92985, residues 1-503, S471D/S472D/S475D/S476D/S477D/S483D/S484D/S487D)", "technique": "protein-binding microarray", "molecule type": "double-stranded DNA, one strand shown", "matrix": "in vitro", "concentration": "2200 nM top", "setting": "60-bp whole probe", "with": "salmon DNA 0.4 mg/ml", "reference": "random background probes", "reading": "higher = stronger binding", "all sequences stand within": "GCCTAGCAC … GTCTTGATTCGCTTGACGCTGCTG", "sequence of UniProt Q92985 (whole entry, unmodified, looked up)": "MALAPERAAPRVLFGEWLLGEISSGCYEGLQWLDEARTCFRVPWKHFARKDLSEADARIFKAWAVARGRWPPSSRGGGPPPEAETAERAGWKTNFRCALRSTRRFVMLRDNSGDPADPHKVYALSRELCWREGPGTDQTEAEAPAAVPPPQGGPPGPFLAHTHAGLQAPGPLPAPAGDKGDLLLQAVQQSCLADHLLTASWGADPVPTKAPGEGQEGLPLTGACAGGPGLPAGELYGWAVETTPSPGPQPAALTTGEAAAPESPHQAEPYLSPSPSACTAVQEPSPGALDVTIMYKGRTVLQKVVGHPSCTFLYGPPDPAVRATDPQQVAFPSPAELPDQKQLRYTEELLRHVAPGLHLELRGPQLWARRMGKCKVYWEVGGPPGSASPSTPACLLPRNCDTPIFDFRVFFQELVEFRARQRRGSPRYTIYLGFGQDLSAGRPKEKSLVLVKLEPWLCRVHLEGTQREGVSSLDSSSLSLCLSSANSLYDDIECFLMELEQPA"}
{"Sequence": "TCAAGTATGTTCACTATTACTGTGCTA", "fitted relative affinity": "0.451 z-score"}
{"Sequence": "TCAATTATTTATTGTAGCACTGTGCTA", "fitted relative affinity": "-0.184 z-score"}
{"Sequence": "CAAACACTAGTTTTCATTTTGTGCTAG", "fitted relative affinity": "3.37 z-score"}
{"Sequence": "GCCGGACTGGGACTGGGGACGTGCTAG", "fitted relative affinity": "-0.81 z-score"}
{"Sequence": "TTTTTTTTTTTTTTTTTGGAGTGCTAG", "fitted relative affinity": "1.83 z-score"}
{"Sequence": "GACGTTCTCCTTATCCTGACGTGCTAG", "fitted relative affinity": "2.28 z-score"}
{"Sequence": "GACGGTTTCGGGAGTGGGGACGTGCTA", "fitted relative affinity": "2.3 z-score"}
{"Sequence": "GACGGTTCCCATTTCCTGACGTGCTAG", "fitted relative affinity": "2.43 z-score"}
{"Sequence": "TTAGGACTGCTACTGCATTAGTGCTAG", "fitted relative affinity": "-0.262 z-score"}
{"Sequence": "TTAGGTTTCGACTATTGGTTAGTGCTA", "fitted relative affinity": "2.53 z-score"}
{"Sequence": "TGAGAACTGGGGTTTCGATTAGTGCTA", "fitted relative affinity": "2.05 z-score"}
{"Sequence": "AACGATTTCAGTTTCGAGACGTGCTAG", "fitted relative affinity": "5.75 z-score"}
{"Sequence": "TGTACTCTCTACATGGGCTTGTGCTAG", "fitted relative affinity": "0.746 z-score"}
{"Sequence": "TTAGATAGCAGTATCGATTAGTGCTAG", "fitted relative affinity": "-0.268 z-score"}
{"Sequence": "TCCTCTCTGCCACTCAGGTAGTGCTAG", "fitted relative affinity": "1.14 z-score"}
{"Sequence": "TCAACTTTCCAAAGCGTACTGTGCTAG", "fitted relative affinity": "1.62 z-score"}
{"Sequence": "TTAGTACTGCTACTGCTTTAGTGCTAG", "fitted relative affinity": "0.523 z-score"}
{"Sequence": "GACGGTTTCGGACTGGGGTCGTGCTAG", "fitted relative affinity": "3.86 z-score"}
{"data": "Study 3", "target": "RNA binding protein fox-1 homolog 2, RRM domain, GST-SBP tag (RBFOX2, Homo sapiens, UniProt O43251-10, residues 100-194)", "technique": "RNA Bind-n-Seq", "molecule type": "RNA", "matrix": "in vitro", "concentration": "365 nM", "setting": "natural RNA segment, single round, ends assumed", "reference": "no-protein control", "reading": "higher = stronger binding", "all sequences stand within": "GGGAGUUCUACAGUCCGACGAUC … UGGAAUUCUCGGGUGCCAA", "Target sequence (chain)": "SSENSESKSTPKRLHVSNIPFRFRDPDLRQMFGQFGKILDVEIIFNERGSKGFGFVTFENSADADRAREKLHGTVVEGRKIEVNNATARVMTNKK"}
{"Sequence": "CAUCUCCCCACUUUAGGCUUCUCAAACAGACUUUUGACACCUCUCAAGUUCAGAGCUCUGAUGUGGAAAGACAGGAGGUGUGGGGAAGGAGGGGGAUUUCGUGUGUUUGC", "RBNS enrichment (R)": 0.662}
{"Sequence": "CAGUAUGAUGUUUCUAUUUUCCAAUACUGGUUCCCUAACGGUCAACAUUUCUUCUCCCAACUAAAAAUGUAAGAAGAAAAAAAAAUUUUUUUCUUUUUCUCUUUUUUUUU", "RBNS enrichment (R)": 0.678}
{"Sequence": "GUGCAGGGGUUCUUUUCAGUUAGAAAAGGCAGGUUGCUUUAAUGUUAUUCUGACUCGCAUUGUUUGCCAACAGAAAAUAUUUUAUACUUUUGUUAUUAAAGCAUCCAGGG", "RBNS enrichment (R)": 0.646}
{"Sequence": "CCUAGCUUCAGAUAAAGAUGAAAGAGAGGAGAUCAUUGUCUUCUGUCUUCUUCUGGCCCUGGGUUUAUACCAGGAAAGCCAUGCCAGAAUUACCAAAUAUGAAGUAUGAA", "RBNS enrichment (R)": 0.286}
{"Sequence": "AAUUUAAUAAGUCUCAGGCAUUUCCAAUUGUAGACUAAAACCACUCUUAGCAUCUCCUCUAGUAUUUUCCAUGUAUCAGGACAGAGGUGUCUUAUGUAGGGAGGGGGCAA", "RBNS enrichment (R)": 0.68}
{"Sequence": "AUGCUAAGAAGAAAAAGAAUUCCAAAUCCUCAACUUUUGAGGUUUCGGCUCUCCAAUUUAACUCUUUGGCAACAGGAAACAGGUUUUGCAAGUUCAAGGUUCACUCCCUA", "RBNS enrichment (R)": 0.4}
{"Sequence": "CUGCCUUGCUGGAGGAGAUGGGAUGGGGCGGGAGGUGGCUUCACCAUAACUAUUUUUAAUAUGGGUCAUUCUUAGCAUGAUUUGUAAAGGUCUCAGGCAAACAGUUGUUG", "RBNS enrichment (R)": 4.72}
{"Sequence": "AUGGCAUCUCUCGCCUCCCUCGCUCGUCUCAGCCCAGCCCUGGAAGACUGAGAAUGUUCCCCCAAAUCUCCUCUGCCAACCAGAGCUCUGGGCACAGAUUCUGGUGGCUC", "RBNS enrichment (R)": 0.406}
{"Sequence": "UAGAAACCUUUUUCUACUUACUAUCAUUUUUAUUGUGGCUUGAGCUCAGUCAAUCUGGUGCAGAUGAGGCUGGACAACUACUAACCAAUAAAAUCAGGAGUUUGUACAAA", "RBNS enrichment (R)": 0.3}
{"Sequence": "UUGGAGGUUCUGAAGAUUCUGUUAUAGAGCAAGAAAUGGCUUAAUUUUUUUUUUUAAUUGGAAUUUACCAGUUUAUUGUUUAGCAGUAAUUACCCCAGGUAACACUGGGC", "RBNS enrichment (R)": 0.5}
{"Sequence": "UGGCUUCUGAAGUGGUCAGGGCCAUGGCUGACACCUCCAGGUCCGCCUGGCAUGGGACACCAAGUGGAAGGCCCAAGCAGCUCAUCUGCUCUUGGGACCAGGGGCCAGUU", "RBNS enrichment (R)": 0.423}
{"Sequence": "UAAUGCCAAAUGCUCUUUAGUAAAAUGCUGAAUUACGGUGUUUUUUUUUUUUUUGCAUCAUUUGUCUUUAAUAUUCAUAAUGUCAUGUGCUUAAAAGUGAGCUUGAAACG", "RBNS enrichment (R)": 0.428}
{"data": "Study 4", "target": "RING finger protein unkempt homolog, zinc fingers 1-6, GST-SBP tag (UNK, Homo sapiens, UniProt Q9C0B0, residues 30-357)", "technique": "RNA Bind-n-Seq", "molecule type": "RNA", "matrix": "in vitro", "concentration": "not given", "setting": "RNA with constant flanks, human-mouse chimeric sites, ends assumed", "reference": "input RNA pool", "reading": "higher = stronger binding", "all sequences stand within": "GGGAGUUCUACAGUCCGACGAUC … CAACAGAGGAUUGAGCAUCA", "Construct (chain)": "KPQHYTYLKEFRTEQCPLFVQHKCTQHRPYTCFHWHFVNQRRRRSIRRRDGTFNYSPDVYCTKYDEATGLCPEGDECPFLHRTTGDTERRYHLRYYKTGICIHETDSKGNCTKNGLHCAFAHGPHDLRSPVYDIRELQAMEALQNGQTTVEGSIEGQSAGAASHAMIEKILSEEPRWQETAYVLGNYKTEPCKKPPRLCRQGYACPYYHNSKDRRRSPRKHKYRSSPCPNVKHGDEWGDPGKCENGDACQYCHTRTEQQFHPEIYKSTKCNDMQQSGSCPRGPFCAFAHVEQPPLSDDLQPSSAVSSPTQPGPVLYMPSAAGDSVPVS"}
{"Sequence": "CACAGAGCAGCACCUACCCCCUCCUCCUUUCCACACCUGCAAACUCUUUUGCCUGGGCUGAAUAUUUAGUGUAAUUAACAUCGCAGCUUGAGGGCUCCUGUGGCAAAUUCCCGGAUUAAA", "bound/input enrichment": "1.63 ratio"}
{"Sequence": "GCCACCAGAUCCCAGAAACAUGACCCUUGCAGCCUAUAAAGAGAAGAUGAAGGAGCUCCCGCUGGUGUCCUUGUUCUGCUCCUGCUUCUUGUCUGAUCCCCUGAAUAAGUCGUCCUACAA", "bound/input enrichment": "0.288 ratio"}
{"Sequence": "CGCGUCCUCUCGCUGCUCCUGCGGGGCAGCUGGGAACCAUUCCGGGACUGGUACCCUGCACACAGCCGCCUCUUCGAUCAAGCUUUCGGGGUGCCCCGGUUGCCCGAUGAGUGGUCGCAG", "bound/input enrichment": "0.0694 ratio"}
{"Sequence": "ACCUCCCCCUCCCGCCUCACCCCACCCCCGCUUUUUGGAAAGUUUUUGGCGUUUCUUUUUUUUAGAAAUACAAAGUGAUUACAGUUUCCCCCGCAAGGGUCUAUCGAUUCACCCUUCGGA", "bound/input enrichment": "1.32 ratio"}
{"Sequence": "UGUGCAUAUGAUGCUUGGAGAUGGUUUUGCAAAAGCAGAAAUCGCUGCAAGGUAAUCCUAAUAGAGAAAAGUGGUAUUUUAAACCUUUGAAAUAAAUGGAUGUAACUGUACCUUGGUACA", "bound/input enrichment": "1.01 ratio"}
{"Sequence": "CAGGGCAUCAUCUCUCGUGCUGUUAGACACCUGUUCAAGAGUAUUGAUGAGAAAAAGACCUCAGCGAUUAAAAACGGGCUGCCCCCUCCAGAUUUUAAAGUGAAUGCCCAAUUCUUAGAG", "bound/input enrichment": "0.605 ratio"}
{"Sequence": "CUGGCCUGGCCCUCCCCAGGGGCCUCCUUCUCUGCAUUCACUGCUUCUGCAUCAGAUACUUUCAGCUGCAACUCCCUACUGGGUGGGGCACCCAUUUCAGGCAGAAGGUUUUGGUACCCU", "bound/input enrichment": "0.269 ratio"}
{"Sequence": "GCUGAAAAUGAAGAAGAGGCAGCUGAUGUCUGGUACAACCUGGGGCACAUAGCUGUGGGAAUCGGAGAUACAAAUUUGGCCCACCAAUGCUUCAGGCUGGCCCUGGUCAACAACAACCAC", "bound/input enrichment": "0.161 ratio"}
{"Sequence": "GGACAUCUGUCAAAUUGUUAUGUUCCUGUGAAACAAGUGAGCACUUUGAUACACUUCAUCUGCUUGUACAUCUGUAUGAUAGAGAAAUGUAAAUAUGUUAAUCCAAGCAAUGUGUCACUU", "bound/input enrichment": "0.237 ratio"}
{"Sequence": "GGGACUGAUUCAUUCCAAGGACAGGCCACCCCAUUUGAUGCCUGGACUGAUGACAGUAUGGAAGGGCCUAGUCAAAAUUUUGAAGCUGAGUCAAUUCAGGAUGCCAUGAGUAUGGAAGAG", "bound/input enrichment": "0.429 ratio"}
{"Sequence": "UCUGGUCAUACUCGUGCGUAUGGUGUUUGCUUUGUGGACACUUCACUGGGCAAGUUUUUCAUCGGCCAGUUUUCGGAUGACCGCCACUGUUCCAGAUUUAGGACGCUAGUGGCACACUAU", "bound/input enrichment": "0.17 ratio"}
{"note": "A few entries again (study 1):"}
{"Sequence": "CCACAGCA", "E-score": 0.163}
{"Sequence": "AATCTGGC", "E-score": 0.019}
{"Sequence": "CGGTTAAG", "E-score": 0.0167}
{"Sequence": "CCTATACA", "E-score": -0.196}
{"Sequence": "CCCACAAG", "E-score": 0.194}
{"Sequence": "ATTGGAGG", "E-score": -0.182}
